Results gathered from unrelated publications.
Each numbered part is a random draw from the data of one study; scales do not carry over between parts. Numbers after ± are the reported error. In brackets after ≈: the same amount, converted by molar mass.
Sequence of UniProt P34914 (whole entry, looked up): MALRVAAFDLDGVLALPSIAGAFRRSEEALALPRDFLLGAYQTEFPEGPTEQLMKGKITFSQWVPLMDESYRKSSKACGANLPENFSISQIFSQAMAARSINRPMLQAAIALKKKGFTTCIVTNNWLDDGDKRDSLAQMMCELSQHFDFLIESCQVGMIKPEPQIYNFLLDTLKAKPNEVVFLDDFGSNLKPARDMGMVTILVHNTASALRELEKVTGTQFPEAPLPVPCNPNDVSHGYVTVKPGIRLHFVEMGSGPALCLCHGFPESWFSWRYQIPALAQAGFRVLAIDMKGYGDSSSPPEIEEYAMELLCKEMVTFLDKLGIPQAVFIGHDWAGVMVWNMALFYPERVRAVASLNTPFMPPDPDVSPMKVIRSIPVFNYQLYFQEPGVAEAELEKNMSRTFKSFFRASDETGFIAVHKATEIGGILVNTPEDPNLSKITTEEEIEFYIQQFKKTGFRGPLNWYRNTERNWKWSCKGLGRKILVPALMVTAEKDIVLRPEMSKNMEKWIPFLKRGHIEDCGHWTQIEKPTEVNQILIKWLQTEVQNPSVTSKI
Sequence of UniProt P34913 (whole entry, looked up): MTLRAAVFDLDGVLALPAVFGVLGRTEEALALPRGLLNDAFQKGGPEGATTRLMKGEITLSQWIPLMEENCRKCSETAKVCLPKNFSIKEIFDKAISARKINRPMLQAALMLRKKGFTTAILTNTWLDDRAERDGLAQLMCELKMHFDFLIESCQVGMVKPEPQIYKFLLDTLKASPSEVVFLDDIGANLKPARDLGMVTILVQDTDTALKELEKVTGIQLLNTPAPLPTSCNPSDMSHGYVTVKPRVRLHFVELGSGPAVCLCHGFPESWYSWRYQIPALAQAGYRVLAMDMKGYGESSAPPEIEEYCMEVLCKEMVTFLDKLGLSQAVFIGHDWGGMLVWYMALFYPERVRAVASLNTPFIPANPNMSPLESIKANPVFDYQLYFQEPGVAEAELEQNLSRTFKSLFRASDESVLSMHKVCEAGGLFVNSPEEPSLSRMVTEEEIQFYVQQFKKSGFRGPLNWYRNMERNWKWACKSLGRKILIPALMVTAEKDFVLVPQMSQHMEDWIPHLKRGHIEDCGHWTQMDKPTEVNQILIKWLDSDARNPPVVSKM

Set 1
Structure (SMILES): Cc1cc(OCc2nnc(SC3CCCC3)n2-c2cccnc2)ccc1-c1ccc(S(C)(=O)=O)cc1
The CC50 was 6.93 µM (OVCAR-3).
It gave > 100 µM for CC50 (UACC-257).
It gave > 100 µM for CC50 (K562).
The CC50 was 5.21 µM (UO-31).

Mixed results
`Cc1ccc(S(=O)(=O)Nc2c(N3CCC(NC(=O)Nc4cc(F)cc(F)c4)CC3)c(=O)c2=O)cc1` gave an IC50 of 0.294 ± 0.0301 µM (EPHX2 (Homo sapiens, UniProt P34913)).
For `pyc (Rhizobium etli, UniProt Q2K340)`, the Km was 340 µM (CC(=O)OP(=O)(O)O; steady-state kinetics; pH 7.5, 25 °C).
`Cc1ccc(S(=O)(=O)Nc2c(N3CCC(NC(=O)Nc4ccc(F)c(C(F)(F)F)c4)CC3)c(=O)c2=O)cc1` has an IC50 of 4.42 ± 0.541 µM (Ephx2 (Mus musculus, UniProt P34914)).
`O=C(Nc1ccc(-c2cnc3ccccc3c2)cc1)C1CCN(Cc2ccc([N+](=O)[O-])cc2)CC1` gave a solubility of 31 to 63 µM (≈ 14.5 to 29.4 µg/mL) (sodium phosphate buffer, 1% DMSO; pH 7.4).
